Results pooled from the literature.
Each numbered part is a random draw from the data of one study; scales do not carry over between parts. Several values in a cell are separate wells, animals, samples, runs or records.
Chain of UniProt P11229 (whole entry, looked up): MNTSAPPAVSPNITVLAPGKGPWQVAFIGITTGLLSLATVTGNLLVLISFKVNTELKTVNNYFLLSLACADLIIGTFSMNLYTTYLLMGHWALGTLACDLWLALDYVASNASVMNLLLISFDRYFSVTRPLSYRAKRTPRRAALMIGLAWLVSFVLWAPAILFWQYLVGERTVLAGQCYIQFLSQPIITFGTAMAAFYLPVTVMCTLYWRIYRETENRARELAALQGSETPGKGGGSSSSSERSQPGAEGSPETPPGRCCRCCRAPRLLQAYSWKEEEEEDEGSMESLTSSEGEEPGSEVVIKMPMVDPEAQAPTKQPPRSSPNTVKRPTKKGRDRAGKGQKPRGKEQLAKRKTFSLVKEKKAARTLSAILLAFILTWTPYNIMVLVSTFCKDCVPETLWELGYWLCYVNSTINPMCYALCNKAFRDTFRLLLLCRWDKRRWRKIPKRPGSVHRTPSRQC
Chain of UniProt P20309 (whole entry, looked up): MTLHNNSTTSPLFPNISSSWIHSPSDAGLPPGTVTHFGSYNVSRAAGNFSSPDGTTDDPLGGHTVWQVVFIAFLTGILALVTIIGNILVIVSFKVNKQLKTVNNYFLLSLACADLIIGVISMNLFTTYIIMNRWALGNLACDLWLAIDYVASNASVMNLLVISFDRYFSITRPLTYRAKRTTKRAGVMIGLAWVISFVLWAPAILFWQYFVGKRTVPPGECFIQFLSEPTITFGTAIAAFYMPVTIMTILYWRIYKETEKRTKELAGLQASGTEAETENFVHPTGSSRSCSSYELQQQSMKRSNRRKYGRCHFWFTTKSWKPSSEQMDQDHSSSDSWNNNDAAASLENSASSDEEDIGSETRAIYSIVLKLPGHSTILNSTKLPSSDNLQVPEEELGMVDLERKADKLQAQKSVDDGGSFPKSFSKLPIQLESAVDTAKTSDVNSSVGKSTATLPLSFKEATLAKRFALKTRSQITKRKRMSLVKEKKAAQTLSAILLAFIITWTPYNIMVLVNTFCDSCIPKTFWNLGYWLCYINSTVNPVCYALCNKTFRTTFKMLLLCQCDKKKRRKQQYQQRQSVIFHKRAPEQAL
Chain of UniProt P41143 (whole entry, looked up): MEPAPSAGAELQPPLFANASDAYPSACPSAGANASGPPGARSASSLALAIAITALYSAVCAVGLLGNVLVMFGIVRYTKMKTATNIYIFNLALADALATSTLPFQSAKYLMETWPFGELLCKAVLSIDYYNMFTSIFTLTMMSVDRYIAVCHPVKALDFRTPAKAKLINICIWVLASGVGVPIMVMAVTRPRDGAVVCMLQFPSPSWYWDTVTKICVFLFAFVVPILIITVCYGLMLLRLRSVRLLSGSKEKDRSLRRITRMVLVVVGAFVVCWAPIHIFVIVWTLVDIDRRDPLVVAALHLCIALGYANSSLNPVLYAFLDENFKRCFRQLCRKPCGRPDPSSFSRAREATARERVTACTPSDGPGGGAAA
Chain of UniProt P21918 (whole entry, looked up): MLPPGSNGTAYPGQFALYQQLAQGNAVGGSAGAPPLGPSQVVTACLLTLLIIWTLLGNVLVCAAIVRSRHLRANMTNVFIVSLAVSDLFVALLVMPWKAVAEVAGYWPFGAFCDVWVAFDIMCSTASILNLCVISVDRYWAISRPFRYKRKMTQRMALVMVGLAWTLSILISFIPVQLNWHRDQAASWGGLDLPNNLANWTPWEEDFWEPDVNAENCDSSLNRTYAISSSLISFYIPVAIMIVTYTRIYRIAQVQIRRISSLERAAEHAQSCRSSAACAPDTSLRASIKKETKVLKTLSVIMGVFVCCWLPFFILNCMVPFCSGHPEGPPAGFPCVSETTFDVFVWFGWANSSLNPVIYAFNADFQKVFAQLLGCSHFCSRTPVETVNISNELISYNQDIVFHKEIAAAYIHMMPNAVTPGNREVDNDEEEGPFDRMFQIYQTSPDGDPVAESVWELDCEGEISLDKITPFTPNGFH

Series 1
Target: Bromodomain-containing protein 4, BD1 (BRD4, Homo sapiens, UniProt O60885)
Effect on: acetyl-histone H4 peptide binding
Method: AlphaScreen displacement
Tested at: 50 µM
Structure (SMILES)	inhibition [%]
CN1C(=O)NC(=O)C(=Cc2ccc[nH]2)C1=O	9.75
O=C1NC(=O)N(c2ccc(Br)cc2)C(=O)C1=Cc1ccc(-c2ccccc2C(=O)O)o1	15.6
CC(O)=C(C#N)C(=O)Nc1cc(Br)ccc1Br	9.6
Nc1nc(N2CCNCC2)c2nc[nH]c2n1	13.6
COc1cccc(N2C(=O)NC(=O)C(=CNc3ccc(F)cc3)C2=O)c1	7.95

Series 2
Target: DNA polymerase theta, ATPase domain (POLQ, Homo sapiens, UniProt O75417)
Chain of UniProt O75417 (whole entry, unmodified, looked up): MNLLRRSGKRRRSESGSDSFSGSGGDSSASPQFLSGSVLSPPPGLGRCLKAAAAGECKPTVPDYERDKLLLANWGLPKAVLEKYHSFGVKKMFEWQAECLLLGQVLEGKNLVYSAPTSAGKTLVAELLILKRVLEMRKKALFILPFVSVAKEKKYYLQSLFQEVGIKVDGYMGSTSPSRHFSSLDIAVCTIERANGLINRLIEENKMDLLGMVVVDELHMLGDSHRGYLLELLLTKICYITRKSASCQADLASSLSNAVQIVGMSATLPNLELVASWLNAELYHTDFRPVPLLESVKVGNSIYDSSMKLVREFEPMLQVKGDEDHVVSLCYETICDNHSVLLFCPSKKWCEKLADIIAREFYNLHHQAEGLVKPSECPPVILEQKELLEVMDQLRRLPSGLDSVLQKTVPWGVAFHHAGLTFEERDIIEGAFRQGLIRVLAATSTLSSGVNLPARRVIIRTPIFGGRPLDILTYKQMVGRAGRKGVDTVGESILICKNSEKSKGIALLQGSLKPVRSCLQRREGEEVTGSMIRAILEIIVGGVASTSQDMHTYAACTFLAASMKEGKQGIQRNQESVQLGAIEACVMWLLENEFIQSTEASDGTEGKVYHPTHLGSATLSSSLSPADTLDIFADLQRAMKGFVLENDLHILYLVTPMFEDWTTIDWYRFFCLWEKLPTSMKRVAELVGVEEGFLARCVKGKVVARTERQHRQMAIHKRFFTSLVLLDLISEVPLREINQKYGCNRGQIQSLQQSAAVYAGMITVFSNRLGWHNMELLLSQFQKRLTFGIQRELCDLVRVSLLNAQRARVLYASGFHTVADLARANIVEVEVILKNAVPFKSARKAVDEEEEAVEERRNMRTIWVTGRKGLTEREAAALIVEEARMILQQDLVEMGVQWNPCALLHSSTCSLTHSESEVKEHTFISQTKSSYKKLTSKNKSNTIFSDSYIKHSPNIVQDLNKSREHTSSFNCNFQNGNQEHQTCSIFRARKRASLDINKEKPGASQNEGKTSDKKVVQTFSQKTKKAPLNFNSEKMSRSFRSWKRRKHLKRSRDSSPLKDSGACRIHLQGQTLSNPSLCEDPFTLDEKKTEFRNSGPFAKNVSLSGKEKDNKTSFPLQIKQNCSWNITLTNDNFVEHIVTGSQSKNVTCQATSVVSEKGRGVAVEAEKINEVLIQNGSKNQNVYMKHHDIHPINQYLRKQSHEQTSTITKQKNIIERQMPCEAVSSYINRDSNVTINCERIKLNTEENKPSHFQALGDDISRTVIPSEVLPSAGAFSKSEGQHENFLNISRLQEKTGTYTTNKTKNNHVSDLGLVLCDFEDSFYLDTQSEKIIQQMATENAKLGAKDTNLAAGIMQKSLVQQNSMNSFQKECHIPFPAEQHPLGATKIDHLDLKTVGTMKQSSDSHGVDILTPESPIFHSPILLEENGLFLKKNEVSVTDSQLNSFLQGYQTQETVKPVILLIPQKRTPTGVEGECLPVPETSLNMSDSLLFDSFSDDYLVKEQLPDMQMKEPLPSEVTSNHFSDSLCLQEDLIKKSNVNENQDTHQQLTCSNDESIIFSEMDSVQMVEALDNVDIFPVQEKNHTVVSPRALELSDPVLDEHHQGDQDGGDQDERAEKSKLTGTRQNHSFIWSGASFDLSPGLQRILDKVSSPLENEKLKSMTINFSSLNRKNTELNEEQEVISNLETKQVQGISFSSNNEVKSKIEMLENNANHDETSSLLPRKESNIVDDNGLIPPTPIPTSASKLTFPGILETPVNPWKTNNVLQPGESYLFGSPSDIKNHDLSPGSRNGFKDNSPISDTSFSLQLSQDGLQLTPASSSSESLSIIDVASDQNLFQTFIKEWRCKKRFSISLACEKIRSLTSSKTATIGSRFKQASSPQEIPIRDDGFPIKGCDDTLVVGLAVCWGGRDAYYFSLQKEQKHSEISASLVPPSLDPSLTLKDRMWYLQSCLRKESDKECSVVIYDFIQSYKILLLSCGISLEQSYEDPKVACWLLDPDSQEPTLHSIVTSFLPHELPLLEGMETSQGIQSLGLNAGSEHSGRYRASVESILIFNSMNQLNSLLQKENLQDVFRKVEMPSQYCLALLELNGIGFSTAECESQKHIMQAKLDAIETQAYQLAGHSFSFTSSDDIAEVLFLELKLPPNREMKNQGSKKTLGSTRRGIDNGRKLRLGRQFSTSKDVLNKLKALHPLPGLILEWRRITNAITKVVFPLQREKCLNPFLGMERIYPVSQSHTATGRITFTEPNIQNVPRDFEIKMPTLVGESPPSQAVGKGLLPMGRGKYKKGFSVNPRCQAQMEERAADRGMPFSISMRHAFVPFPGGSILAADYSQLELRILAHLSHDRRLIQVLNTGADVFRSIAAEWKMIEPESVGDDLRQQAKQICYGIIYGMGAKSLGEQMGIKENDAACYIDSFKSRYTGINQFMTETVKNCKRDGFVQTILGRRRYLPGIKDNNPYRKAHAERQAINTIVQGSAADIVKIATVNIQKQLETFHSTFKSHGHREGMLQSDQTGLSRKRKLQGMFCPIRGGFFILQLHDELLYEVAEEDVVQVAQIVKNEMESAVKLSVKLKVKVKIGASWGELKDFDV
Effect on: enzyme activity
Mode: inhibitor
Tested at: 77 µM
Reference: untreated
SMILES	remaining activity [%]
O=S(=O)(c1c(O)c(Cl)cc(Cl)c1Cl)c1c(O)c(Cl)cc(Cl)c1Cl	106
C=C(C)[C@H]1Cc2c(ccc3c2O[C@@H]2COc4cc(OC)c(OC)cc4[C@@H]2C3=O)O1	91.2
CC(C)Oc1cccnc1N(C)C1CCN(Cc2ccccc2)CC1	95.5
c1ccc2c(N3CCNCC3)cccc2c1	96.5
c1ccc2sc(C3(N4CCCCC4)CCCCC3)cc2c1	99.8

Series 3
Target: Eukaryotic initiation factor 4A-I (EIF4A1, Homo sapiens, UniProt P60842)
Chain of UniProt P60842 (whole entry, looked up): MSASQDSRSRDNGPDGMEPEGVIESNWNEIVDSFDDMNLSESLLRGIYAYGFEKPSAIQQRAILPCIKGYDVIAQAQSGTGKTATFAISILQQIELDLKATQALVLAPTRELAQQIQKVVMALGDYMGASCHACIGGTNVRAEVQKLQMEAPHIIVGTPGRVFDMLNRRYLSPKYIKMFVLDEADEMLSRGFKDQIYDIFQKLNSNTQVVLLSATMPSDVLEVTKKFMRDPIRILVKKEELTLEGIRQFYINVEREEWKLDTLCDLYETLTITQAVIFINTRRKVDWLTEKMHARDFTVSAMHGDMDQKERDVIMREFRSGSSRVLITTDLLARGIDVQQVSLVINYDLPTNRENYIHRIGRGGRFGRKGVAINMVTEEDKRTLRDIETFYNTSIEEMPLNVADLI
Effect on: RNA clamping
Method: fluorescence polarization
Tested at: concentration not given
Setting: mean of two replicates
With: FAM-labelled poly r(AG)8 RNA
SMILES	fluorescence polarization change
COc1ccc([C@@]23Oc4cc(OC)cc(OC)c4[C@]2(O)c2nc4n(c(=O)c2[C@H]3c2ccccc2)CCC4)cc1	60.9 mP and 70.3 mP
COc1ccc(-c2nc3c(c(=O)[nH]2)[C@H](c2ccccc2)[C@@]2(c4ccc(OC)cc4)Oc4cc(OC)cc(OC)c4[C@@]32O)cc1	31.9 mP
COCCN[C@]12c3c(OC)cc(OC)cc3O[C@@]1(c1ccc(OC)cc1)[C@H](c1ccccc1)C[C@@H]2O	5.8 mP
COc1ccc([C@@]23Oc4cc(OC)cc(OC)c4[C@]2(O)c2nc(-c4ccc(N(C)C)cc4)[nH]c(=O)c2[C@H]3c2ccccc2)cc1	8.6 mP
COC(=O)[C@H]1[C@@H](O)[C@@]2(O)c3c(OC)cc(OC)cc3O[C@@]2(c2ccc(OC)cc2)[C@@H]1c1ccccc1	70.9 mP and 30.8 mP
COCC1=N[C@@]2(O)[C@H](C(=O)N(C)OC)[C@@H](c3ccccc3)[C@]3(c4ccc(OC)cc4)Oc4cc(OC)cc(OC)c4[C@]23N1	56.4 mP
COC(=O)[C@H]1[C@@H](O)[C@@]2(O)c3c(OC)cc(O)cc3O[C@@]2(c2ccc(OC)cc2)[C@@H]1c1ccccc1	53.8 mP
COC(=O)[C@H]1[C@@H](c2ccccc2)C2(c3ccc(OC)cc3)Oc3cc(OC)cc(OC)c3[C@@]1(O)C2=O	3 mP
COc1ccc([C@@]23Oc4cc(OC)cc(OC)c4[C@]2(O)c2nc(-c4ccccc4)[nH]c(=O)c2[C@@H]3c2ccccc2)cc1	12.9 mP
CCCCC1=N[C@@]2(O)[C@H](C(=O)OC)[C@@H](c3ccccc3)[C@]3(c4ccc(OC)cc4)Oc4cc(OC)cc(OC)c4[C@]23N1	67.5 mP

Series 4
Structure (SMILES): FC(F)(F)c1ccc2c(c1)nc(-c1cccnc1)n2C1CC1
Effect on: cell-free assay
Tested at: 10 µM
target	inhibition
Delta-type opioid receptor (OPRD1, Homo sapiens, UniProt P41143)	-9.33%
Muscarinic acetylcholine receptor M1 (CHRM1, Homo sapiens, UniProt P11229)	-7.11%
Mu-type opioid receptor (OPRM1, Homo sapiens, UniProt P35372)	-2.5%
Kappa-type opioid receptor (OPRK1, Homo sapiens, UniProt P41145)	-1.84%
5-hydroxytryptamine receptor 2A (HTR2A, Homo sapiens, UniProt P28223)	4.15%
Muscarinic acetylcholine receptor M3 (CHRM3, Homo sapiens, UniProt P20309)	-1.22%
D(1B) dopamine receptor (DRD5, Homo sapiens, UniProt P21918)	22.5%

A few entries again (series 3):
SMILES	fluorescence polarization change
COc1ccc([C@@]23Oc4cc(OC)cc(OC)c4[C@]2(O)c2nc(-c4ccc(N(C)C)cc4)[nH]c(=O)c2[C@H]3c2ccccc2)cc1	8.6 mP
COC(=O)[C@H]1[C@@H](O)[C@@]2(O)c3c(OC)cc(OC)cc3O[C@@]2(c2ccc(OC)cc2)[C@@H]1c1ccccc1	70.9 mP and 30.8 mP
COCC1=N[C@@]2(O)[C@H](C(=O)N(C)OC)[C@@H](c3ccccc3)[C@]3(c4ccc(OC)cc4)Oc4cc(OC)cc(OC)c4[C@]23N1	56.4 mP
COC(=O)[C@H]1[C@@H](O)[C@@]2(O)c3c(OC)cc(O)cc3O[C@@]2(c2ccc(OC)cc2)[C@@H]1c1ccccc1	53.8 mP
